{"data": "Measurements pooled from the literature", "note": "A part holds a random share of what one study measured.", "chain of UniProt P42336 (whole entry, unmodified, looked up)": "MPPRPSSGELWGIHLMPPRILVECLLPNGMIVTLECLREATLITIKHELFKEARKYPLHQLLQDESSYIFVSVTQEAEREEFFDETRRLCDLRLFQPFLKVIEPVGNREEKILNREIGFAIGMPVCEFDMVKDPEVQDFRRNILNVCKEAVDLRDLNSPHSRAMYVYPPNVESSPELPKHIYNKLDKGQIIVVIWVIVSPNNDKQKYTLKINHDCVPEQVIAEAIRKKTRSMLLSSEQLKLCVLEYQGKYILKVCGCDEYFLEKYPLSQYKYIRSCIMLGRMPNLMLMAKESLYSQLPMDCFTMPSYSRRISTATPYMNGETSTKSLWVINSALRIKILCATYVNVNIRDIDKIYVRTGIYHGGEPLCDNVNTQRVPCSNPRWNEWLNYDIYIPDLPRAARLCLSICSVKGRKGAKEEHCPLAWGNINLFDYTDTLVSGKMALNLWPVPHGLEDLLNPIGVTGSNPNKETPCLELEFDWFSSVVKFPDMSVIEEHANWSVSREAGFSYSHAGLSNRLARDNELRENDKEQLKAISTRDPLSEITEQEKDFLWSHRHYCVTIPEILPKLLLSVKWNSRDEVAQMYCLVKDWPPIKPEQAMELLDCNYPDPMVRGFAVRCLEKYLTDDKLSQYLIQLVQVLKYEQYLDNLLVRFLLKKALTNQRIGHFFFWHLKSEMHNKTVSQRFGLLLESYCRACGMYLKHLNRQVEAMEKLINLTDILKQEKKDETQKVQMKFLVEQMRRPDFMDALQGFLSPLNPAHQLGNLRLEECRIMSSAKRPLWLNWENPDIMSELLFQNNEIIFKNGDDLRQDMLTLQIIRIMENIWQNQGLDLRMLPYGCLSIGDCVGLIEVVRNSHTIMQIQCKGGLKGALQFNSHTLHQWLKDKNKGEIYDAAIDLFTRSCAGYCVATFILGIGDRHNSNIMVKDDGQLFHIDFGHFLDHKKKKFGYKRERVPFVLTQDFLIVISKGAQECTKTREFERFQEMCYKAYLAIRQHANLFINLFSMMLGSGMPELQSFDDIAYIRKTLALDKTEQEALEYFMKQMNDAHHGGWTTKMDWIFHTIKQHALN", "chain of UniProt P06239 (whole entry, looked up)": "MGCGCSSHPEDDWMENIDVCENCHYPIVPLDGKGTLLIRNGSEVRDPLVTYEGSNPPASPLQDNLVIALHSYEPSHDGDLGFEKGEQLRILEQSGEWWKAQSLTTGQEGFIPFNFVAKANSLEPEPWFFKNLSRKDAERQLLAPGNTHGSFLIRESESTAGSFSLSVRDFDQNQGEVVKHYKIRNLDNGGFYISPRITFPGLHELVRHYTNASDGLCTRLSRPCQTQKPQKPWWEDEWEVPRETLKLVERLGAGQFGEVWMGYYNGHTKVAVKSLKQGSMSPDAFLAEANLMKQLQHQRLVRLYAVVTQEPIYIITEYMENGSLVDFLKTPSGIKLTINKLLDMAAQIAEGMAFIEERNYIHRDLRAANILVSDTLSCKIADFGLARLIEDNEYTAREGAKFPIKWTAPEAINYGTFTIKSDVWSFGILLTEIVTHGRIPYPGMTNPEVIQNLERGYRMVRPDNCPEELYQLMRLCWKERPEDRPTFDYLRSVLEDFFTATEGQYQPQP", "chain of UniProt Q9HC98 (whole entry, looked up)": "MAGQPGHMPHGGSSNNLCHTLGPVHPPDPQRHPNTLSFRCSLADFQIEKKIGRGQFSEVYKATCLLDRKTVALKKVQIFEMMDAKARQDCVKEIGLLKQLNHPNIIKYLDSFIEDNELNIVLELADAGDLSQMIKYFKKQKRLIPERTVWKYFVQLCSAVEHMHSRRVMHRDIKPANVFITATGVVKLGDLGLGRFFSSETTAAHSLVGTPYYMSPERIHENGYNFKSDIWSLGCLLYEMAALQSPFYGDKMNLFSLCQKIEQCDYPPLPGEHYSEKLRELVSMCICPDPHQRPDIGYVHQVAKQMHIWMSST", "chain of UniProt Q96QT4 (whole entry, looked up)": "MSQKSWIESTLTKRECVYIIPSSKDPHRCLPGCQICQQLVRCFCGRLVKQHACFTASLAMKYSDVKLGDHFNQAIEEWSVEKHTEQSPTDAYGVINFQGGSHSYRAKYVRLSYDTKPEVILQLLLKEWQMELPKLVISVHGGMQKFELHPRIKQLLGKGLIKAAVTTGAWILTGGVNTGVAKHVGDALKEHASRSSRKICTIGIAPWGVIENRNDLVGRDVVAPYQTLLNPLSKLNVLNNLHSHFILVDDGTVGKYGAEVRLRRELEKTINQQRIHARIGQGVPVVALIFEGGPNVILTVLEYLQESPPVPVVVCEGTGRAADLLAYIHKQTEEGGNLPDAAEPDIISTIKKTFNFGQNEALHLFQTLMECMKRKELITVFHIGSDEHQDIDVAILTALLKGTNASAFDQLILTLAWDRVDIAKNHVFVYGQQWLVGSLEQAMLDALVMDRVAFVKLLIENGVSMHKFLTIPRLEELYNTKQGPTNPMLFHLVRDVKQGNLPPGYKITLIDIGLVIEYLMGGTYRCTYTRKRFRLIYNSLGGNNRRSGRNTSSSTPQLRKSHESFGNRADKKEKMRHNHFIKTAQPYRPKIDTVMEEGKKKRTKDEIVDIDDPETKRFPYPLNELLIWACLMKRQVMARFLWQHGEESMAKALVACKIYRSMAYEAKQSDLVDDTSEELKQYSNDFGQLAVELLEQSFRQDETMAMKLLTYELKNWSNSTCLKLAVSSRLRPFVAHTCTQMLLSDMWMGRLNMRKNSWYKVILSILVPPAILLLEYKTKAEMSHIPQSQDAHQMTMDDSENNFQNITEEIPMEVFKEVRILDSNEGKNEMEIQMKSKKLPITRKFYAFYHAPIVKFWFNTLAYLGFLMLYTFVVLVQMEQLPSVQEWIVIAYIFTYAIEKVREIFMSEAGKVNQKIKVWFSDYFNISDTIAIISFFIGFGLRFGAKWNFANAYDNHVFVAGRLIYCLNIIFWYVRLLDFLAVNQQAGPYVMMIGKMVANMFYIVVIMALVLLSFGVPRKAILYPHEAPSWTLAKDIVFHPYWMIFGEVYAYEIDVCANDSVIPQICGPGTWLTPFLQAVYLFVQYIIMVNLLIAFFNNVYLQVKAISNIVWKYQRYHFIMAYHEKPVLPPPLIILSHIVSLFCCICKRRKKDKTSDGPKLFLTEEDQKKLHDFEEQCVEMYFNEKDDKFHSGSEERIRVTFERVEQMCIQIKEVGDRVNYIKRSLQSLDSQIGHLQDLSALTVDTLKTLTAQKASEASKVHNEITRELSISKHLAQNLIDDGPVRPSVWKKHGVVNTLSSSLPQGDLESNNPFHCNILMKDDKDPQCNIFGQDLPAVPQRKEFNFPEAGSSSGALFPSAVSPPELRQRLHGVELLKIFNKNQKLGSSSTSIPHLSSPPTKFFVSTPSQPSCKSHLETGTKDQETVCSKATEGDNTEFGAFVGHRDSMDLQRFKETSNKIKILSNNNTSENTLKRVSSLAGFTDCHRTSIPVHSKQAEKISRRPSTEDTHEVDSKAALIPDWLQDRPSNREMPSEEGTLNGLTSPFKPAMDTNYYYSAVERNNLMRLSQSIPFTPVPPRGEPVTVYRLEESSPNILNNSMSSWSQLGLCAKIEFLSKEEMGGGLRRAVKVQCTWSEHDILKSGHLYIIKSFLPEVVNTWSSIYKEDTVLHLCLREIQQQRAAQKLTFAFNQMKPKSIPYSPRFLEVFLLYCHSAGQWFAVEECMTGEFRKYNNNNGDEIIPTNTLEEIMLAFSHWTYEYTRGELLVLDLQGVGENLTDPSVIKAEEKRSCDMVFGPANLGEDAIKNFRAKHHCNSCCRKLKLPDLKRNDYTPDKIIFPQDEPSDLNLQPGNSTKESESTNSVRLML", "chain of UniProt Q9Y6M4 (whole entry, looked up)": "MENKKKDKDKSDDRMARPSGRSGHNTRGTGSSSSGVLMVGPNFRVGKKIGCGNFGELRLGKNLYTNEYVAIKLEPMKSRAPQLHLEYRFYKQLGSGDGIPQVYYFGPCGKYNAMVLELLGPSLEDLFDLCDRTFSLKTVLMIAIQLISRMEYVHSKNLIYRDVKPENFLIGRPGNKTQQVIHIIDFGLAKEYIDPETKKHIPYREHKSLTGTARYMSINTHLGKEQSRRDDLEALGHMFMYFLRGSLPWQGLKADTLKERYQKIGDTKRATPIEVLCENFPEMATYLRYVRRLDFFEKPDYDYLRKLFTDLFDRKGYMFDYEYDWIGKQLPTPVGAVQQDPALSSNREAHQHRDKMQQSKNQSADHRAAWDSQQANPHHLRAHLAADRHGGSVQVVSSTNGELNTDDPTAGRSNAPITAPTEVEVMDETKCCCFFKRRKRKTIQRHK", "chain of UniProt P36507 (whole entry, looked up)": "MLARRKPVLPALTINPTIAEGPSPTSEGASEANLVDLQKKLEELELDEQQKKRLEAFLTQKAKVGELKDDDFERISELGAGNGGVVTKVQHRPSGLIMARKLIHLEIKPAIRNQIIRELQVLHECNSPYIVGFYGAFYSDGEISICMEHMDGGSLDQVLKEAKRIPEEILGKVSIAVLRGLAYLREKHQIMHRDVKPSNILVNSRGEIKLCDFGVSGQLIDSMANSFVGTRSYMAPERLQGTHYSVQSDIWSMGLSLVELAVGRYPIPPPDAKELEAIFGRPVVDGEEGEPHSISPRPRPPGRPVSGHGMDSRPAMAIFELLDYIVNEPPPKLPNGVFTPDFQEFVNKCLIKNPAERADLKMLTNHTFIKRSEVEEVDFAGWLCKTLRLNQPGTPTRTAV", "chain of UniProt P49841 (whole entry, looked up)": "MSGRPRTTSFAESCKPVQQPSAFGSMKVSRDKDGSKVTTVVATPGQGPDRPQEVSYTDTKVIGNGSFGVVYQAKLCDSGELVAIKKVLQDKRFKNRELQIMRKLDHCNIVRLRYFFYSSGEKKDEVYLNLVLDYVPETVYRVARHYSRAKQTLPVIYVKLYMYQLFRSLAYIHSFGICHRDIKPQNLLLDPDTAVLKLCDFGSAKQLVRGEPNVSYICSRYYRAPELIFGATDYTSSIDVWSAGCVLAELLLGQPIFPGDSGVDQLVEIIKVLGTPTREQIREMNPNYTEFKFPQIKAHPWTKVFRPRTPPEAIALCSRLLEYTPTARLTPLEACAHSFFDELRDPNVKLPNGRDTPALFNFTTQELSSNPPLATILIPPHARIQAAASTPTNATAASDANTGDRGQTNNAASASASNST"}
{"data": "Study 1", "SMILES": "O=C(O)/C=C/c1cc(Br)c(Br)c(Br)c1Br", "read-out": "enzyme activity", "action": "inhibitor", "tested at": "0.5 µM", "reference": "control"}
{"target": "MERTK (Homo sapiens, UniProt Q12866)", "remaining activity": "92.4%"}
{"target": "MST1R (Homo sapiens, UniProt Q04912)", "remaining activity": "87.1%"}
{"target": "FGFR1 (Homo sapiens, UniProt P11362)", "remaining activity": "95.2%"}
{"target": "FGFR3 (Homo sapiens, UniProt P22607)", "remaining activity": "94.9%"}
{"target": "TBK1 (Homo sapiens, UniProt Q9UHD2)", "remaining activity": "91.4%"}
{"target": "TAOK2 (Homo sapiens, UniProt Q9UL54)", "remaining activity": "88.9%"}
{"target": "ABL2 (Homo sapiens, UniProt P42684)", "remaining activity": "88.7%"}
{"target": "NEK6 (Homo sapiens, UniProt Q9HC98)", "remaining activity": "102%"}
{"target": "MAP3K14 (Homo sapiens, UniProt Q99558)", "remaining activity": "100%"}
{"target": "GSK3B (Homo sapiens, UniProt P49841)", "remaining activity": "105%"}
{"target": "MAP2K2 (Homo sapiens, UniProt P36507)", "remaining activity": "103%"}
{"target": "ACVR1B (Homo sapiens, UniProt P36896)", "remaining activity": "103%"}
{"target": "CSNK1G3 (Homo sapiens, UniProt Q9Y6M4)", "remaining activity": "92.1%"}
{"target": "FRK (Homo sapiens, UniProt P42685)", "remaining activity": "102%"}
{"target": "ULK2 (Homo sapiens, UniProt Q8IYT8)", "remaining activity": "80.3%"}
{"target": "NEK1 (Homo sapiens, UniProt Q96PY6)", "remaining activity": "85.4%"}
{"target": "JAK3 (Homo sapiens, UniProt P52333)", "remaining activity": "71.8%"}
{"target": "LCK (Homo sapiens, UniProt P06239)", "remaining activity": "99.3%"}
{"target": "MAPKAPK2 (Homo sapiens, UniProt P49137)", "remaining activity": "91.5%"}
{"target": "MAPK3 (Homo sapiens, UniProt P27361)", "remaining activity": "110%"}
{"target": "RPS6KA2 (Homo sapiens, UniProt Q15349)", "remaining activity": "75.8%"}
{"target": "WEE1 (Homo sapiens, UniProt P30291)", "remaining activity": "99.1%"}
{"target": "CSNK1G2 (Homo sapiens, UniProt P78368)", "remaining activity": "90.1%"}
{"target": "EPHA3 (Homo sapiens, UniProt P29320)", "remaining activity": "92.3%"}
{"target": "MAP3K5 (Homo sapiens, UniProt Q99683)", "remaining activity": "94%"}
{"data": "Study 2", "host": "human", "medium": "microsomes or S9", "tested at": "2 µM", "time": "0.5 h"}
{"Structure (SMILES)": "CC(C)(C)NC(=O)NC(=O)CN1CCCC1CN1CCCCC1 (stereo not shown)", "remaining compound": "40.4%"}
{"Structure (SMILES)": "Cc1ccc(-n2ccc3c(cnc4ccn(-n5cnnc5)c(=O)c43)c2=O)cc1C", "remaining compound": "95.2%"}
{"Structure (SMILES)": "CCOC(=O)c1c(NC(=O)c2cc(OC)c(OC)c(OC)c2)sc(C)c1-c1ccc(OC)c(OC)c1", "remaining compound": "0.521%"}
{"Structure (SMILES)": "c1csc(COc2ccc(CNn3cnnc3)cc2)c1", "remaining compound": "84.8%"}
{"Structure (SMILES)": "CCOCCCN1C(=O)CN(S(C)(=O)=O)CC1(C)C(=O)NCc1ccc(C)cc1 (stereo not shown)", "remaining compound": "89.7%"}
{"Structure (SMILES)": "CC(C)(C)OC(=O)NC(CC(=O)N1CCCCCN1C(=O)c1cccc(C#N)c1)Cc1ccccc1F (stereo not shown)", "remaining compound": "44%"}
{"Structure (SMILES)": "COc1ccc(-c2noc(CC(=O)NCc3ccccc3)c2-c2ccc(OC)cc2)cc1", "remaining compound": "0.447%"}
{"data": "Study 3", "SMILES": "CC(C)(O)c1cncc(-c2nc3ccc(F)cc3n2C2CC2)c1", "read-out": "cell-free assay", "technique": "competition with immobilised ligand", "tested at": "1 µM"}
{"target": "PIK3CA (Homo sapiens, UniProt P42336, E545K)", "remaining binding [%]": 95}
{"target": "IGF1R (Homo sapiens, UniProt P08069)", "remaining binding [%]": 100}
{"target": "PAK5 (Homo sapiens, UniProt Q9P286)", "remaining binding [%]": 100}
{"target": "MATK (Homo sapiens, UniProt P42679)", "remaining binding [%]": 100}
{"target": "PIK3CA (Homo sapiens, UniProt P42336, E545A)", "remaining binding [%]": 90}
{"target": "CSNK2A1 (Homo sapiens, UniProt P68400)", "remaining binding [%]": 100}
{"data": "Study 4", "SMILES": "CC(C)S(=O)(=O)c1ccc2nccc(Nc3ccc4sc(C5CCCC5)nc4c3)c2c1.Cl", "read-out": "kinase activity", "action": "inhibitor", "tested at": "1 µM"}
{"target": "KDR (Homo sapiens, UniProt P35968)", "remaining activity [%]": 93}
{"target": "MET (Homo sapiens, UniProt P08581)", "remaining activity [%]": 117}
{"target": "MAP3K2 (Homo sapiens, UniProt Q9Y2U5)", "remaining activity [%]": 96}
{"target": "CAMK1D (Homo sapiens, UniProt Q8IU85)", "remaining activity [%]": 88}
{"target": "EPHA2 (Homo sapiens, UniProt P29317)", "remaining activity [%]": 95}
{"target": "PRKAA1 (Homo sapiens, UniProt Q13131)", "remaining activity [%]": 110}
{"target": "TRPM7 (Homo sapiens, UniProt Q96QT4)", "remaining activity [%]": 99}
{"target": "PRKCG (Homo sapiens, UniProt P05129)", "remaining activity [%]": 103}
{"data": "Study 5", "SMILES": "C[C@H]1CC[C@H](n2c3cnccc3c3cnc(Nc4ccc5c(n4)CCN(C(=O)CO)C5)nc32)CC1", "read-out": "cell-free assay", "tested at": "1 µM"}
{"target": "SBK3 (Homo sapiens, UniProt P0C264)", "remaining signal": "100%"}
{"target": "RET (Homo sapiens, UniProt P07949, M918T)", "remaining signal": "23%"}
{"target": "CDK18 (Homo sapiens, UniProt Q07002)", "remaining signal": "44%"}
{"target": "EGFR (Homo sapiens, UniProt P00533, G719C)", "remaining signal": "99%"}
{"target": "MAPK6 (Homo sapiens, UniProt Q16659)", "remaining signal": "100%"}
{"target": "STK16 (Homo sapiens, UniProt O75716)", "remaining signal": "2.5%"}
{"note": "Repeated from above (study 1):"}
{"target": "MAPK3 (Homo sapiens, UniProt P27361)", "remaining activity": "110%"}
{"target": "MST1R (Homo sapiens, UniProt Q04912)", "remaining activity": "87.1%"}
{"target": "RPS6KA2 (Homo sapiens, UniProt Q15349)", "remaining activity": "75.8%"}
